{"data": "Results collected from several papers", "note": "Numbered parts are unrelated; each lists some results of a single study. Values joined by “and” are separate records of one study, mostly repeats; a detail may differ.", "chain of UniProt P53779 (whole entry, looked up)": "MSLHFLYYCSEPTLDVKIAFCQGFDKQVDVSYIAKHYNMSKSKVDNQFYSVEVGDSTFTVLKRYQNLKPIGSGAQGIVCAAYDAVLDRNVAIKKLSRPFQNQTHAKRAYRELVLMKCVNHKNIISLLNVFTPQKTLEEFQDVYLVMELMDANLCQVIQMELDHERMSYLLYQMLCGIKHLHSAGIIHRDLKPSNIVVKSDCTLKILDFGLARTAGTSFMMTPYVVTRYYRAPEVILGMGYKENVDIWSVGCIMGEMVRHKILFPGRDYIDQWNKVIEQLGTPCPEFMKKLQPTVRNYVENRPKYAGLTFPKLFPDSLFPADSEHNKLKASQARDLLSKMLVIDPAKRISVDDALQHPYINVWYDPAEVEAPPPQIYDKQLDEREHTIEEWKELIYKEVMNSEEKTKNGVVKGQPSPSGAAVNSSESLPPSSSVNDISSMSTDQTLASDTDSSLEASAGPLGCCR", "chain of UniProt O95819 (whole entry, looked up)": "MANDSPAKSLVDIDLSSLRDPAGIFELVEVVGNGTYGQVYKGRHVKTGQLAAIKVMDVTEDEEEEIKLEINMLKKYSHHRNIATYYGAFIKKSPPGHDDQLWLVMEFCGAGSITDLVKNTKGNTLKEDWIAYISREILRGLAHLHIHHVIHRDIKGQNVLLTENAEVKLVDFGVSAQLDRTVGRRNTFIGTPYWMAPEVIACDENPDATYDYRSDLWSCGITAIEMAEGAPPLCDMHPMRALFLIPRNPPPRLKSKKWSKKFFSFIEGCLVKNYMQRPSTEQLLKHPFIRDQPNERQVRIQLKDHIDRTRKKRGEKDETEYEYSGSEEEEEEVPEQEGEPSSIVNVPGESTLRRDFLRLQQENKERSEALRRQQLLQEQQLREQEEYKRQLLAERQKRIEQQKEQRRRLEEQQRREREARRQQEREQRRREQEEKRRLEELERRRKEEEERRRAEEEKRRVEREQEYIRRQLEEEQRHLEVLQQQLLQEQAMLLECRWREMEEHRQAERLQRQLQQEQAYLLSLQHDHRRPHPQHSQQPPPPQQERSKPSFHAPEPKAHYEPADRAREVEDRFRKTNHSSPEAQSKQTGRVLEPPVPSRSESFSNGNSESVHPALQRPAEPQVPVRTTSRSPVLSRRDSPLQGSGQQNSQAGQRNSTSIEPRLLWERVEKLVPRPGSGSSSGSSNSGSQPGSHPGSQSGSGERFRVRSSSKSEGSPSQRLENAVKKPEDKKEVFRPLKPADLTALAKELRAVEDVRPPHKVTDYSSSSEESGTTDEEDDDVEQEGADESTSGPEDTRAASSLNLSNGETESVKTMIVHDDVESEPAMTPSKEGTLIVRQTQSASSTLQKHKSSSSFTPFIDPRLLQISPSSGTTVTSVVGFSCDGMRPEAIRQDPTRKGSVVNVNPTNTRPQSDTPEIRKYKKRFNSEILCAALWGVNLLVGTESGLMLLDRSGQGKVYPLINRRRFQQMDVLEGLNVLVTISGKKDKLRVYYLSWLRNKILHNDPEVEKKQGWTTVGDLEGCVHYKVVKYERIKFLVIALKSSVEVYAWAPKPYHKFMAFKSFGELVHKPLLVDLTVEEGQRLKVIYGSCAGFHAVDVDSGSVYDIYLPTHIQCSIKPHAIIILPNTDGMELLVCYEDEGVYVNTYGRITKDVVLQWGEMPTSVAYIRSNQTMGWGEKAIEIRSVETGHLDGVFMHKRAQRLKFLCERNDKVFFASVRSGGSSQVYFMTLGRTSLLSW", "chain of UniProt Q08881 (whole entry, looked up)": "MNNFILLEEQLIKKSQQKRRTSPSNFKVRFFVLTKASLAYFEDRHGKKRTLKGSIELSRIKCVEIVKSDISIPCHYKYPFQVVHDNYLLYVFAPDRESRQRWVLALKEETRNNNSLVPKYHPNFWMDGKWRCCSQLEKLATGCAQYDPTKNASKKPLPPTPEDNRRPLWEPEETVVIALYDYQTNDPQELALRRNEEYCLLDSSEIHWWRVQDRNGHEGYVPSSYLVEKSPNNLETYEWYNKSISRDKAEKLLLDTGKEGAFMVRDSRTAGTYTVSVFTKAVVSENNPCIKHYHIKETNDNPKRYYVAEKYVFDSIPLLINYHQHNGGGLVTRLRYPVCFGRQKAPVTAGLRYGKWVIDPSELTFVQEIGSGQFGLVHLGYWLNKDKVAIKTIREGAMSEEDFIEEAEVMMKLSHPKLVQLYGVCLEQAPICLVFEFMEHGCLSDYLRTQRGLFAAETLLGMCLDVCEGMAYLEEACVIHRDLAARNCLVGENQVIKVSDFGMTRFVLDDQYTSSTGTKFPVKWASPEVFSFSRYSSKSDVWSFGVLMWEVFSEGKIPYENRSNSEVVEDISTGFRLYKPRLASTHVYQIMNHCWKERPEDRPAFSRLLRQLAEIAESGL", "chain of UniProt Q6PHR2 (whole entry, looked up)": "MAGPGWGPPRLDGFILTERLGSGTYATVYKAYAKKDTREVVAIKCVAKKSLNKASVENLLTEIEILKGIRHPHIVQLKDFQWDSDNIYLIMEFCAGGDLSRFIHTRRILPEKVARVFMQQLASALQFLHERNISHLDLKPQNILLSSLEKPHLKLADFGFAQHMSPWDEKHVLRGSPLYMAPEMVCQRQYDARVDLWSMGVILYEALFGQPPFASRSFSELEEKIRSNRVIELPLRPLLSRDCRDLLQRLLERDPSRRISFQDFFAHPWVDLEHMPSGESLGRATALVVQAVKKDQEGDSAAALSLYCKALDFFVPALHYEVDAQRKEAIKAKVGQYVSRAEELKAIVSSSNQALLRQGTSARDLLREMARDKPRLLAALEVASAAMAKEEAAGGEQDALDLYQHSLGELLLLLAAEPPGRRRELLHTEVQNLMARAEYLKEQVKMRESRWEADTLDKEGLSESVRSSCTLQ"}
{"data": "Study 1", "target": "Beta-1 adrenergic receptor (ADRB1, Homo sapiens, UniProt P08588)", "mode": "antagonist", "chain of UniProt P08588 (whole entry, looked up)": "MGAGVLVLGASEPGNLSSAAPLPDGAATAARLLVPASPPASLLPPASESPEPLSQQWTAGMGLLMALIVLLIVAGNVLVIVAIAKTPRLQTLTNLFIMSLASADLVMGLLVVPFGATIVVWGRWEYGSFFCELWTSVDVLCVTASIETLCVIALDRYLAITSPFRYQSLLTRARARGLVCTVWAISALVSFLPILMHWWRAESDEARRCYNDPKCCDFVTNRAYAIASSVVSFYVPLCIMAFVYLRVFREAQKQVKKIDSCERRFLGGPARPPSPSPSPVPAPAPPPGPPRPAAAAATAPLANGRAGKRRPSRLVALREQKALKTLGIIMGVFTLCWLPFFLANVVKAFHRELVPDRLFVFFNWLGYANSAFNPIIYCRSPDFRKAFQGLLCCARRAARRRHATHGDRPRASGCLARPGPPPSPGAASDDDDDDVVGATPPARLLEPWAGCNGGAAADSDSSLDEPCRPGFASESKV"}
{"SMILES": "Nc1nc(CC(=O)Nc2ccc(CCNC[C@H](O)c3ccccc3)cc2)cs1", "IC50 [µM]": "≥ 100"}
{"SMILES": "COc1ccccc1N1CCN(C(=O)c2ccc(C)n2C)CC1", "IC50 [µM]": "≥ 100"}
{"SMILES": "c1ccc2c(CCNCc3ccc(-n4ccnc4)cc3)c[nH]c2c1", "IC50 [µM]": "≥ 100"}
{"SMILES": "CN1CCN(C)c2cc(-c3ccc(N4CCOCC4)cc3)ncc2C1", "IC50 [µM]": "≥ 100"}
{"SMILES": "Cc1cc(C)n(-c2ccc(=O)n(C3CCN(c4ccc5ccccc5n4)CC3)n2)n1", "IC50 [µM]": "≥ 100"}
{"SMILES": "CC(=O)N1CCN(c2ncccc2-c2cc(-c3ccccc3)nc3c(C)noc23)CC1", "IC50 [µM]": "≥ 100"}
{"SMILES": "Cc1nnc(CN(C)Cc2ccccc2OCC(O)CN2CCSCC2)o1 (centres unmarked)", "IC50 [µM]": "≥ 100"}
{"data": "Study 2", "SMILES": "CN(c1ccnc(CNc2nc(Nc3ccc4c(c3)CC(=O)N4)ncc2C(F)(F)F)n1)S(C)(=O)=O", "read-out": "cell-free assay", "method": "competition with immobilised ligand", "concentration": "1 µM"}
{"target": "MAPK10 (Homo sapiens, UniProt P53779)", "remaining binding [%]": 56}
{"target": "PRKD2 (Homo sapiens, UniProt Q9BZL6)", "remaining binding [%]": 92}
{"target": "ULK3 (Homo sapiens, UniProt Q6PHR2)", "remaining binding [%]": 25}
{"target": "MAP4K4 (Homo sapiens, UniProt O95819)", "remaining binding [%]": 82}
{"target": "PIM3 (Homo sapiens, UniProt Q86V86)", "remaining binding [%]": 77}
{"target": "ITK (Homo sapiens, UniProt Q08881)", "remaining binding [%]": 93}
{"data": "Study 3", "cell line": "mouse MPNST tumor cells", "method": "high-content nuclear imaging", "item": "cell number", "concentration": "10 µM", "time": "12 h", "setting": "mean of 2 replicates", "reference": "plate mean", "direction": "higher = more cells"}
{"SMILES": "CCCCCN(CCCCC)C(=O)C(CCC(=O)O)NC(=O)c1ccc(Cl)c(Cl)c1 (centres unmarked)", "nuclei count": "1.9 z-score"}
{"SMILES": "CC=CC(=O)N(CC)c1ccccc1C", "nuclei count": "0.452 z-score"}
{"SMILES": "CN1CCN(c2ncc(-c3cc(Cl)cc(Cl)c3Cl)c(N)n2)CC1", "nuclei count": "0.788 z-score"}
{"SMILES": "CC(=O)NCCCS(=O)(=O)O", "nuclei count": "-0.475 z-score and 0.346 z-score"}
{"SMILES": "CC(C)(C)c1ccc(NC(=O)N2CCN(c3ncccc3Cl)CC2)cc1", "nuclei count": "0.545 z-score"}
{"SMILES": "CCOc1ccccc1OCC1CNCCO1 (centres unmarked)", "nuclei count": "-0.488 z-score"}
{"SMILES": "CCOc1ncc(S(=O)(=O)N2CCN(CC)CC2)cc1-c1nc2c(CC)n(CCOC)nc2c(=O)[nH]1", "nuclei count": "0.14 z-score"}
{"data": "Study 4", "target": "Mitogen-activated protein kinase kinase kinase 20 (MAP3K20, Homo sapiens, UniProt Q9NYL2)", "read-out": "enzyme activity", "mode": "inhibitor", "concentration": "0.5 µM", "reference": "control", "chain of UniProt Q9NYL2 (whole entry, looked up)": "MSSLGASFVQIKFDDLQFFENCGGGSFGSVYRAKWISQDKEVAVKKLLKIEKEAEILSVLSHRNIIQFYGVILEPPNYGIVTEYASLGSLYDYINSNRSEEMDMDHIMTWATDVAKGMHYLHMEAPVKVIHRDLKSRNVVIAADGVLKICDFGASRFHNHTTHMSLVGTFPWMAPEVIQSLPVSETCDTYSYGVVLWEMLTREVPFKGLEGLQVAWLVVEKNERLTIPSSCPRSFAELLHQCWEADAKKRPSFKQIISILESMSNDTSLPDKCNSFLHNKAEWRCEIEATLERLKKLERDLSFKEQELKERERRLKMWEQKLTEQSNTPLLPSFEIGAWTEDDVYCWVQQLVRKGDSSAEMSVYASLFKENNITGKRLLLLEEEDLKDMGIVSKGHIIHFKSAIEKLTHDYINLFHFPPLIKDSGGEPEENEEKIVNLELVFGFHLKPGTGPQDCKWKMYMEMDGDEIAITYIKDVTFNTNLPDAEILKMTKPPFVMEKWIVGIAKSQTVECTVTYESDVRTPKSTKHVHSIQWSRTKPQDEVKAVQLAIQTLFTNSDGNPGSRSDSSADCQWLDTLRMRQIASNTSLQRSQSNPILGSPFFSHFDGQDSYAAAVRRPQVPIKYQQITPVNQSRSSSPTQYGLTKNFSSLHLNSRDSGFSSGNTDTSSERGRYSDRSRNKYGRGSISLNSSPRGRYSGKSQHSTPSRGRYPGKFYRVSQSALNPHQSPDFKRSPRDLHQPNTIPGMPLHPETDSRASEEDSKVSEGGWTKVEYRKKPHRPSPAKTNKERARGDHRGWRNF"}
{"SMILES": "Cn1sc(=O)n(Cc2ccccc2)c1=O", "remaining activity": "100%"}
{"SMILES": "COc1cc2nccc(Oc3ccc(NC(=S)NC(=O)c4ccccc4C)cc3)c2cc1OC", "remaining activity": "71.7%"}
{"SMILES": "COc1ccc(OC)c2c(=S)c3ccccc3[nH]c12", "remaining activity": "94%"}
{"SMILES": "Cc1ccc(Nc2nccc(N(C)c3ccc4c(C)n(C)nc4c3)n2)cc1S(N)(=O)=O", "remaining activity": "96.9%"}
{"SMILES": "COc1ccc(C(=O)Nc2sc3c(c2C(N)=O)CCCC3)cc1OC", "remaining activity": "93.8%"}
{"SMILES": "O=C(CCCc1ccc(-c2ccccc2F)cc1)Nc1ccc(O)cc1", "remaining activity": "97.8%"}
{"SMILES": "C#Cc1cccc(Nc2ncnc3cc(OCCOC)c(OCCOC)cc23)c1", "remaining activity": "92.2%"}
{"SMILES": "OCC(O)CCON=C1C(c2c(O)[nH]c3ccccc23)=Nc2ccccc21 (centres unmarked)", "remaining activity": "76.4%"}
{"SMILES": "CN(C)c1ccc(C=C2C(=O)Nc3ccccc32)cc1", "remaining activity": "96.5%"}
{"SMILES": "O=C1NC(=O)C(c2cn(CCCn3ccnc3)c3ccccc23)=C1Nc1ccccc1", "remaining activity": "104%"}
{"SMILES": "NCCNc1ncc(C(N)=O)c(Nc2cccc(C(F)(F)F)c2)n1", "remaining activity": "111%"}
{"SMILES": "O=c1c2ccccc2[nH]c(=S)n1CCN1CCC(=C(c2ccc(F)cc2)c2ccc(F)cc2)CC1", "remaining activity": "98.6%"}
{"SMILES": "CC(C)[C@H](CO)Nc1nc(Nc2cc(N)cc(Cl)c2)c2ncn(C(C)C)c2n1", "remaining activity": "92.3%"}
{"SMILES": "CCOC(=O)c1c(C)[nH]c(/C=C2\\C(=O)Nc3ccccc32)c1C", "remaining activity": "92.7%"}
{"SMILES": "Nc1[nH]nc2nc3ccccc3nc12", "remaining activity": "96.3%"}
